{"data": "Experimental data gathered from unrelated publications", "note": "Parts stem from different laboratories: compare values within a part only.", "UniProt O75582, sequence (whole entry, looked up)": "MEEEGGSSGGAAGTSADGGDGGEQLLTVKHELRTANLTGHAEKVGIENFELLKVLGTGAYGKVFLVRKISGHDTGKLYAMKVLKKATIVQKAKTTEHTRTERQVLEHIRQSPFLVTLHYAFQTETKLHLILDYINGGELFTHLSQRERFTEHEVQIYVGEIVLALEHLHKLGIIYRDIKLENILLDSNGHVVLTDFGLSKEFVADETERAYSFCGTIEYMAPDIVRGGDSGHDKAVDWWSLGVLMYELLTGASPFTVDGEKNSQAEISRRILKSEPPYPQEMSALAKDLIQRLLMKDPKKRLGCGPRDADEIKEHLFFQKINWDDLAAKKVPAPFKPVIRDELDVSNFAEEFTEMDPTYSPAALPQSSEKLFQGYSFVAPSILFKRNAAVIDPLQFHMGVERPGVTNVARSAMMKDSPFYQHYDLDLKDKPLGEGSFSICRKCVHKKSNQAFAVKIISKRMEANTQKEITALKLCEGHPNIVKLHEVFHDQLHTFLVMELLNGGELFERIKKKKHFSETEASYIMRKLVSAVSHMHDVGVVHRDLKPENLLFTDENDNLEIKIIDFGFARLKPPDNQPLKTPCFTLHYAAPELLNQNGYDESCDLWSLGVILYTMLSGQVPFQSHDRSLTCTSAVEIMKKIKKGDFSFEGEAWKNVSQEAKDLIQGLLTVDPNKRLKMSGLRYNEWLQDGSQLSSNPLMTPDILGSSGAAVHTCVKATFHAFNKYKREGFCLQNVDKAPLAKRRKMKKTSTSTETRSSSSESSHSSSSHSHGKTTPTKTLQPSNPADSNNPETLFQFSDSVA", "UniProt P42680, sequence (whole entry, looked up)": "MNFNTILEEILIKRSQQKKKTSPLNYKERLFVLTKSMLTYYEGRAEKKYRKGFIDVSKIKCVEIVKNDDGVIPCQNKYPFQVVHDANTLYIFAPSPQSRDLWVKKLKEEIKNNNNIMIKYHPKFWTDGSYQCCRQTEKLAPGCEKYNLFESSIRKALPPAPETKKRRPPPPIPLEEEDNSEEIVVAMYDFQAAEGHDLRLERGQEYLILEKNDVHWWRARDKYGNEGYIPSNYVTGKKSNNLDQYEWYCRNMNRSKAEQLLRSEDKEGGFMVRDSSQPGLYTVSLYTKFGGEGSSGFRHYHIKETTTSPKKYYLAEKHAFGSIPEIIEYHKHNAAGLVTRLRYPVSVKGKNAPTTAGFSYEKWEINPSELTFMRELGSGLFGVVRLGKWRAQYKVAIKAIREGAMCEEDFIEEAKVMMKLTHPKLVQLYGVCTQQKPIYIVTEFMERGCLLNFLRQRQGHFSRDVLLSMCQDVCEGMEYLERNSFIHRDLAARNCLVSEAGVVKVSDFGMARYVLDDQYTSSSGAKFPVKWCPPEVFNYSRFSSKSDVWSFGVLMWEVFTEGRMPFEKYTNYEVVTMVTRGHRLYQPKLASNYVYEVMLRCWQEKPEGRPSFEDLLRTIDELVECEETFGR", "UniProt Q9UIK4, sequence (whole entry, looked up)": "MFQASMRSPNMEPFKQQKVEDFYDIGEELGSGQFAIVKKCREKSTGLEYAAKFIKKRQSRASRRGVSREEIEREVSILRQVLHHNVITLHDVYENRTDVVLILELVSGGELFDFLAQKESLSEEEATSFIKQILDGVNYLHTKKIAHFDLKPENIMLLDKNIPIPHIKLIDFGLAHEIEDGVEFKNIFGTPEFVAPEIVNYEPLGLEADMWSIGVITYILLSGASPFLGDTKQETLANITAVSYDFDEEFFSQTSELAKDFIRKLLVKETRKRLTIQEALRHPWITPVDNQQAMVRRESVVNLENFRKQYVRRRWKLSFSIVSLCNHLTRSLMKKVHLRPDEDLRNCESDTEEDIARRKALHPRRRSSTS", "UniProt P54753, sequence (whole entry, looked up)": "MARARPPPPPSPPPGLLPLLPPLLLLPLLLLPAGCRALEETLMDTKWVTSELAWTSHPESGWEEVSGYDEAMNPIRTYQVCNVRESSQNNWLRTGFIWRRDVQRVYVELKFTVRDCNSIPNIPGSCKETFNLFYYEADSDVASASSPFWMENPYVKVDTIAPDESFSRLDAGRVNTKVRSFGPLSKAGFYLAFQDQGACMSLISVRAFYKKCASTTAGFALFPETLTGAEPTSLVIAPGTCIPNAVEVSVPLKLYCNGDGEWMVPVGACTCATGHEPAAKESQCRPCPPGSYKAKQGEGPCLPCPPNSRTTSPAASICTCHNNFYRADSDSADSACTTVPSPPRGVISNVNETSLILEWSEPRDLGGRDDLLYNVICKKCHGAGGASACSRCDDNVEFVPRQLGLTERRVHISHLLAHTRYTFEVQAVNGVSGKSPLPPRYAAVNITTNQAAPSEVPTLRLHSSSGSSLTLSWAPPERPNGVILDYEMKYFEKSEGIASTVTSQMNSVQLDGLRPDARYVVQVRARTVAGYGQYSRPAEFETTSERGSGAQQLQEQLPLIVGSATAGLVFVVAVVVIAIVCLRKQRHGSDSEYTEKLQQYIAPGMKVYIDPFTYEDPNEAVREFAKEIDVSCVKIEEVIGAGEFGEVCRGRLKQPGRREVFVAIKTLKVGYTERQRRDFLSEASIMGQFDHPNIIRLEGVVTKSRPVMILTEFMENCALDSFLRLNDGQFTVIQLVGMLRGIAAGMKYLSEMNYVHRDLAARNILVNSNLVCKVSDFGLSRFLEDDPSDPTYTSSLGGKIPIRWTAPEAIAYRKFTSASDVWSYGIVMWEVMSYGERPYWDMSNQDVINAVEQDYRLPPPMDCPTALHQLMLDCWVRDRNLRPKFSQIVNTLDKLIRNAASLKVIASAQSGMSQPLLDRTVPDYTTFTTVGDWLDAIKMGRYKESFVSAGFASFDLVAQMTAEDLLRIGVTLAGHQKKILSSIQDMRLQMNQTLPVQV", "UniProt P49840, sequence (whole entry, looked up)": "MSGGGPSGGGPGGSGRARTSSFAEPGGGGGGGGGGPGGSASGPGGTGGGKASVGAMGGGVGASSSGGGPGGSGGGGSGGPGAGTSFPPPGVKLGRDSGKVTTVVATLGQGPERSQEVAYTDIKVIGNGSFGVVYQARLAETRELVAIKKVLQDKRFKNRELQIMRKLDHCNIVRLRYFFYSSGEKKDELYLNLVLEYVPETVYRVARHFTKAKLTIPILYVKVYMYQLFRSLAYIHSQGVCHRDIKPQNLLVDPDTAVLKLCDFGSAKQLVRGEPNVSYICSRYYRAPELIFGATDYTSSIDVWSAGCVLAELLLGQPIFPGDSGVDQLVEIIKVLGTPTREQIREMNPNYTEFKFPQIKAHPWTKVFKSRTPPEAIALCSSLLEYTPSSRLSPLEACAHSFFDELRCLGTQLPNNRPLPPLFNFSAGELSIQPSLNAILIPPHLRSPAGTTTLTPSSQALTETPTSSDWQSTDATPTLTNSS"}
{"data": "Study 1", "target": "Non-receptor tyrosine-protein kinase TYK2 (TYK2, Homo sapiens, UniProt P29597)", "read-out": "enzyme activity", "action": "inhibitor", "concentration": "0.5 µM", "baseline": "control", "UniProt P29597, sequence (whole entry, looked up)": "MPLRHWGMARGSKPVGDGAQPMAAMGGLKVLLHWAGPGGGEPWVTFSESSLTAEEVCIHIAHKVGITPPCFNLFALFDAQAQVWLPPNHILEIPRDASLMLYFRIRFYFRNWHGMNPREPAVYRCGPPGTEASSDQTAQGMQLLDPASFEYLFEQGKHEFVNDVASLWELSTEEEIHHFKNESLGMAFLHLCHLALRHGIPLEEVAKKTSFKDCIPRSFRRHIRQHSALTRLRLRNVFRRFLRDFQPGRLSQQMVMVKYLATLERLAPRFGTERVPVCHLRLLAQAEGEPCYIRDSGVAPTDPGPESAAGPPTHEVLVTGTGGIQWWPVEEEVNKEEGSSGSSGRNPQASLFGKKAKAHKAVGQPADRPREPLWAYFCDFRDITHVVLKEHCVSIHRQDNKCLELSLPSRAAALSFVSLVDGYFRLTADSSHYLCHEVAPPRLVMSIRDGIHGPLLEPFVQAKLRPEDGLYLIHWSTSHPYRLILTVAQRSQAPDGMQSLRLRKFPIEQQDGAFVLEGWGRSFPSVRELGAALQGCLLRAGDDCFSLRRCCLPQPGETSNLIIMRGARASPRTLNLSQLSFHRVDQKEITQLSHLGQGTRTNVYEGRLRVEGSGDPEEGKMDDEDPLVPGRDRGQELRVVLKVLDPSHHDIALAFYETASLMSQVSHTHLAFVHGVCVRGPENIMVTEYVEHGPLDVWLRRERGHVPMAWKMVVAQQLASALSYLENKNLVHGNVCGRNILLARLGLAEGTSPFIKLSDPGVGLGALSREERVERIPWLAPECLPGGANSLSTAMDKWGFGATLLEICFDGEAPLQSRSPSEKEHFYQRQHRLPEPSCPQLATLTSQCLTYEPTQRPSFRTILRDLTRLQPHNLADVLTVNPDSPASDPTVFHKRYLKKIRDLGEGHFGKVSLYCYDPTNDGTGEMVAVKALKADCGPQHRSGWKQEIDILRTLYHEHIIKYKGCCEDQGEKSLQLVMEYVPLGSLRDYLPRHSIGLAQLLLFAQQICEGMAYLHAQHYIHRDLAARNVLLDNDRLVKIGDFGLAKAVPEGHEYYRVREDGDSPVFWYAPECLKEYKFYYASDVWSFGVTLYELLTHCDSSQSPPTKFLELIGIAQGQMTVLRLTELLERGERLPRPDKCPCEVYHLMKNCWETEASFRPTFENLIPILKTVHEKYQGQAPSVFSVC"}
{"SMILES": "Cc1cccc(-c2[nH]c(C(C)(C)C)nc2-c2ccc3c(c2)OCO3)n1", "remaining activity": "102%"}
{"SMILES": "Nc1ncnc2n[nH]c(Nc3ccc(F)cc3)c12", "remaining activity": "92.3%"}
{"SMILES": "O=C1NC(=O)C(c2cn(CCCO)c3ncccc23)=C1c1cnccn1", "remaining activity": "96.9%"}
{"SMILES": "Oc1ccc(-c2nc(-c3ccncc3)c(-c3ccc(F)cc3)[nH]2)cc1", "remaining activity": "106%"}
{"SMILES": "O=C(CCCc1ccc(-c2ccccc2F)cc1)Nc1ccc(O)cc1", "remaining activity": "96.5%"}
{"SMILES": "COc1ccc(C(=O)Nc2sc3c(c2C(N)=O)CCCC3)cc1OC", "remaining activity": "117%"}
{"SMILES": "O=C1NC(=O)C(c2cn(CCCn3ccnc3)c3ccccc23)=C1Nc1ccccc1", "remaining activity": "83.4%"}
{"SMILES": "COc1cc2nccc(Oc3ccc(NC(=S)NC(=O)c4ccccc4C)cc3)c2cc1OC", "remaining activity": "88.5%"}
{"SMILES": "NCCNc1ncc(C(N)=O)c(Nc2cccc(C(F)(F)F)c2)n1", "remaining activity": "96.7%"}
{"SMILES": "COc1ccc(CNC(=O)Nc2ncc([N+](=O)[O-])s2)cc1", "remaining activity": "108%"}
{"SMILES": "CC(C)[C@H](CO)Nc1nc(Nc2cc(N)cc(Cl)c2)c2ncn(C(C)C)c2n1", "remaining activity": "57.9%"}
{"SMILES": "OCC(O)CCON=C1C(c2c(O)[nH]c3ccccc23)=Nc2ccccc21 (stereo not drawn)", "remaining activity": "9.42%"}
{"SMILES": "C#Cc1cccc(Nc2ncnc3cc(OCCOC)c(OCCOC)cc23)c1", "remaining activity": "99.6%"}
{"SMILES": "COc1cc2ncnc(Nc3ccc(Oc4ccccc4)cc3)c2cc1OC", "remaining activity": "107%"}
{"SMILES": "Cc1nc(-c2ccccc2)c(-c2ccncc2)o1", "remaining activity": "109%"}
{"data": "Study 2", "target": "Ras GTPase-activating protein-binding protein 1, full length (G3BP1, Homo sapiens, UniProt Q13283)", "technique": "RNA Bind-n-Seq", "molecule type": "RNA", "medium": "in vitro", "concentration": "200 nM", "notes": "whole 134-nt RNA, ends assumed", "together with": "150 mM LiCl", "baseline": "input library", "direction": "higher = stronger binding", "library": "7-deaza-guanosine replaces G", "constant ends, left off below": "GGGAGUUCUACAGUCCGACGAUC … UGGAAUUCUCGGGUGUCAAGG", "UniProt Q13283, sequence (whole entry, looked up)": "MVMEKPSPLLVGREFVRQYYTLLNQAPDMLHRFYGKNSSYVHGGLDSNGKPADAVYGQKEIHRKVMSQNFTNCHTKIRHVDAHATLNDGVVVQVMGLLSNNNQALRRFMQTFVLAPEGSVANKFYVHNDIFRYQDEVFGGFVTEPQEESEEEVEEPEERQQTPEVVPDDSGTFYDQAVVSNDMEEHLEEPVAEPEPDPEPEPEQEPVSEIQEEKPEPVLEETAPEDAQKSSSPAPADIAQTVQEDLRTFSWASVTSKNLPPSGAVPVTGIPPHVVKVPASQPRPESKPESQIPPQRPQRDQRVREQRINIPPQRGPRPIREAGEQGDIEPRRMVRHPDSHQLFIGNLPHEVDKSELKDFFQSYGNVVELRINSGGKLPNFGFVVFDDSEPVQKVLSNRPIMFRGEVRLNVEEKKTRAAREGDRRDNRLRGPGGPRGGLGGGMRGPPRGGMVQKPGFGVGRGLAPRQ"}
{"Strand": "GCAGGAAGUAAAAACAAAUGGAAAUGAAACGGAUAGUGGCAGGGGUGGGGGUUGCUAAGGAAAGGGUGGGAUGGGAGUGGGUAAAGAGUU", "log2 enrichment": -0.0202}
{"Strand": "AGUCCUGUGCUACACAUCGUAUGUACCGAAUCGGGGAAAAAGGGGUGGGGAAAGGGGAAAGUAUUAUGUUACGCCGUUCGGAUCUGCACU", "log2 enrichment": 0.105}
{"Strand": "UCAAGUCCUGUGCUACACAUCGUAUGUACCGAAUCGGAAAGGGAAAGGGAAAGGGAAAGUAUUAUGUUACGCCGUUCGGAUCUGCACUUC", "log2 enrichment": -0.206}
{"Strand": "UGGGAGGUGGAUUUUGUUUAUUUUUUUAGCUCAUUUCCAGGGGUGGGACUUUUUUUUUAAUAUGUGUCAUGAAUAAAGUUGUUUUUGAAA", "log2 enrichment": -0.453}
{"Strand": "UCAAGUCCUGUGCUACACAUCGUAUGUACCGAAUCGGGAAAGGAAAGGAAAGGGGAAAGUAUUAUGUUACGCCGUUCGGAUCUGCACUUC", "log2 enrichment": -0.572}
{"Strand": "CAAGUCCUGUGCUACACAUCGUAUGUACCGAAUCGGGAGGGAAAAAAAGGGAGGGAAAGUAUUAUGUUACGCCGUUCGGAUCUGCACUUC", "log2 enrichment": 0.409}
{"Strand": "GUCCUGUGCUACACAUCGUAUGUACCGAAUCGGGCCCCCCGGCCCCCCGGGCCCCCCGGAAAGUAUUAUGUUACGCCGUUCGGAUCUGCA", "log2 enrichment": -0.676}
{"Strand": "AAGUCCUGUGCUACACAUCGUAUGUACCGAAUCGGUUUUGGUUUUGGGGUUUUGGGAAAGUAUUAUGUUACGCCGUUCGGAUCUGCACUU", "log2 enrichment": -0.717}
{"data": "Study 3", "SMILES": "COc1cc(-c2cn(C3CCc4ccccc4N(CC(F)(F)F)C3=O)nn2)ccc1-n1ccc(C)n1 (stereo not drawn)", "concentration": "1 µM"}
{"target": "CDK9 (Homo sapiens, UniProt P50750)", "assay": "cell-free assay, competition with immobilised ligand", "remaining binding": "100%"}
{"target": "EPHB3 (Homo sapiens, UniProt P54753)", "assay": "cell-free assay, competition with immobilised ligand", "remaining binding": "100%"}
{"target": "DAPK2 (Homo sapiens, UniProt Q9UIK4)", "assay": "cell-free assay, competition with immobilised ligand", "remaining binding": "100%"}
{"target": "Ribosomal protein S6 kinase alpha-5, C-terminal kinase domain (RPS6KA5, Homo sapiens, UniProt O75582)", "assay": "cell-free assay, competition with immobilised ligand", "remaining binding": "71%"}
{"target": "FLT3 (Homo sapiens, UniProt P36888, R834Q)", "assay": "cell-free assay, competition with immobilised ligand", "remaining binding": "100%"}
{"target": "FLT4 (Homo sapiens, UniProt P35916)", "assay": "cell-free assay, competition with immobilised ligand", "remaining binding": "100%"}
{"target": "STK38L (Homo sapiens, UniProt Q9Y2H1)", "assay": "binding, competition with immobilised ligand", "remaining binding": "75%"}
{"target": "Tyrosine-protein kinase ABL1, phosphorylated (ABL1, Homo sapiens, UniProt P00519, F317I)", "assay": "binding", "remaining binding": "67%"}
{"target": "TEC (Homo sapiens, UniProt P42680)", "assay": "binding, competition with immobilised ligand", "remaining binding": "100%"}
{"target": "SRPK3 (Homo sapiens, UniProt Q9UPE1)", "assay": "cell-free assay, competition with immobilised ligand", "remaining binding": "100%"}
{"target": "EPHB6 (Homo sapiens, UniProt O15197)", "assay": "cell-free assay, competition with immobilised ligand", "remaining binding": "100%"}
{"target": "GSK3A (Homo sapiens, UniProt P49840)", "assay": "cell-free assay, competition with immobilised ligand", "remaining binding": "86%"}
{"target": "MAPK6 (Homo sapiens, UniProt Q16659)", "assay": "cell-free assay, competition with immobilised ligand", "remaining binding": "100%"}
{"target": "PIM1 (Homo sapiens, UniProt P11309)", "assay": "cell-free assay, competition with immobilised ligand", "remaining binding": "100%"}
{"target": "LRRK2 (Homo sapiens, UniProt Q5S007, G2019S)", "assay": "cell-free assay, competition with immobilised ligand", "remaining binding": "100%"}
{"target": "PTK2B (Homo sapiens, UniProt Q14289)", "assay": "cell-free assay, competition with immobilised ligand", "remaining binding": "100%"}
{"target": "BRAF (Homo sapiens, UniProt P15056, V600E)", "assay": "cell-free assay, competition with immobilised ligand", "remaining binding": "97%"}
{"data": "Study 4", "target": "Hepatocyte nuclear factor 3-beta, forkhead domain (FOXA2, Homo sapiens, UniProt Q9Y261, residues 142-269)", "technique": "protein-binding microarray", "molecule type": "double-stranded DNA, one strand shown", "medium": "in vitro", "concentration": "not given", "notes": "k-mer, scored over probes, only values ≥0.25", "direction": "higher = stronger binding", "Target sequence (chain)": "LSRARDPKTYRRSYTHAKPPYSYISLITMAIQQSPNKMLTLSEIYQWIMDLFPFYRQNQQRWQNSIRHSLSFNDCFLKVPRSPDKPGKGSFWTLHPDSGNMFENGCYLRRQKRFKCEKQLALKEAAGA"}
{"Strand": "AATTGTAG", "E-score": 0.265}
{"Strand": "AACGTAAA", "E-score": 0.273}
{"Strand": "ACGTGTTG", "E-score": 0.27}
{"Strand": "CTTGTTTA", "E-score": 0.297}
{"Strand": "GTAAACAC", "E-score": 0.344}
{"Strand": "ACAACATG", "E-score": 0.303}
{"Strand": "AAAATGGT", "E-score": 0.254}
{"Strand": "AAAAGATA", "E-score": 0.256}
{"note": "Excerpt of the above (study 3):"}
{"target": "PTK2B (Homo sapiens, UniProt Q14289)", "assay": "cell-free assay, competition with immobilised ligand", "remaining binding": "100%"}
{"target": "TEC (Homo sapiens, UniProt P42680)", "assay": "binding, competition with immobilised ligand", "remaining binding": "100%"}
{"target": "CDK9 (Homo sapiens, UniProt P50750)", "assay": "cell-free assay, competition with immobilised ligand", "remaining binding": "100%"}
{"target": "SRPK3 (Homo sapiens, UniProt Q9UPE1)", "assay": "cell-free assay, competition with immobilised ligand", "remaining binding": "100%"}
